Measurements collected from several papers.
Protocols differ between the studies behind these lines. “And” joins repeats or separate records; there may be more than shown. ± marks the error that the study gave.

SMILES	tested on	test	system	setting	how to read	endpoint	value
Nc1ncc(-c2cc(-c3cnn(CC(F)(F)F)c3)ncc2F)nc1C(=O)NC1CNCC(F)C1 (stereo not shown)	AURKB	KINOMEscan		1 µM	baseline: DMSO control	remaining binding	100%
COC1CN([C@H]2CC[C@H]([C@@]3(C)Oc4c(Cl)cc(C(=O)NCc5c(SC)cc(C)[nH]c5=O)c(C)c4O3)CC2)C1		RNA-seq, refers to: HEMGN mouse homolog	mouse, HT-1376 xenograft, whole blood	dose not given	baseline: vehicle	log2 fold change	0.645
N#C[C@@H]1CC(F)(F)CN1C(=O)CNC(=O)c1ccnc2ccc(OCCCN3CCN(C(=S)Nc4ccc(C[C@H]5CN(CC(N)=O)CCN(CC(N)=O)CCN(CC(N)=O)CCN5CC(N)=O)cc4)CC3)cc12		iTLC	mouse serum	72 h, 37 °C, lead-203-labelled		intact complex	100%
Cc1ncsc1-c1ccc(C(C)NC(=O)C2CC(O)CN2C(=O)C(NC(=O)CCCCCCCCCCN2CCCC(Nc3ncc(Cl)c(Nc4ccccc4S(=O)(=O)C(C)C)n3)C2)C(C)(C)C)cc1 (stereo not shown)	22Rv1	RNA-seq, refers to: SDHAF1 mRNA		concentration not given	baseline: DMSO	log2 fold change	-1.14
CCCC[C@H](NC(=O)COCCOCCNC(=O)CN1CCN(CC(=O)O)CCN(CC(=O)O)CC1)C(=O)N[C@H]1CC(=O)NCCCC[C@@H](C(N)=O)NC(=O)[C@H](Cc2c[nH]c3ccccc23)NC(=O)[C@H](CCCNC(=N)N)NC(=O)[C@@H](Cc2ccccc2)NC(=O)[C@H](Cc2c[nH]cn2)NC1=O [technetium-99m labelled]			C57 mouse, bone	intravenous, 0.037 MBq, 24 h		tissue uptake	0.13 ± 0.03 %ID/g
CC(C)C[C@@H](NC(=O)[C@@H](CC(C)C)NC(=O)[C@@H](CC(=O)O)NC(=O)[C@@H](CC(C)C)NC(=O)[C@@H](CC(C)C)NC(=O)[C@@H](CC(C)C)NC(=O)[C@H](NC(=O)[C@@H](CC(=O)O)NC(=O)[C@H](NC(=O)[C@H]1CCCN1C(=O)[C@@H](Cc1ccccc1)NC(=O)[C@@H](CC(C)C)NC(=O)[C@@H](CC(C)C)NC(=O)[C@@H](CC(=O)O)NC(=O)[C@@H](CC(C)C)NC(=O)[C@@H](Cc1ccc(O)cc1)NC(=O)[C@@H](C)NC(=O)[C@@H](CCCNC(=N)N)NC(=O)[C@@H](Cc1c[nH]c2ccccc12)NC(=O)[C@H]1CCCN1C(=O)[C@@H](CC(N)=O)NC(=O)[C@@H](CCC(N)=O)NC(=O)[C@@H](CC(=O)O)NC(=O)[C@@H](CC(=O)O)NC(=O)[C@@H](CSC1CC(=O)N(CCNC(=O)CN2CCN(CC(=O)O)CCN(CC(=O)O)CC2)C1=O)NC(=O)[C@@H](C)N)[C@H](C)O)[C@H](C)O)C(=O)N[C@H](Cc1c[nH]c2ccccc12)C(=O)O (stereo partly shown) [copper-64 labelled]			C57BL/6 mice, female, B16-F10 melanoma, tumor	intravenous, 4 h		tissue uptake	9.29 %ID/g
N#C[C@@H]1CC(F)(F)CN1C(=O)CNC(=O)c1ccnc2ccc(OCCCN3CCN(C(=S)Nc4ccc(C[C@H]5CN(Cc6ccccn6)CCN(Cc6ccccn6)CCN(Cc6ccccn6)CCN5Cc5ccccn5)cc4)CC3)cc12		iTLC	mouse serum	72 h, 37 °C, lead-203-labelled		intact complex	100%
CC(C)C[C@H](NC(=O)[C@H](Cc1ccc(O)cc1)NC(=O)[C@@H](CCCNC(=N)N)NC(=O)[C@@H](CO)NC(=O)[C@H](Cc1ccccc1)NC(=O)[C@H](CC1CCCCC1)NC(=O)[C@H](CC(=O)O)NC(=O)CN1CCN(CC(=O)O)CCN(CC(=O)O)CCN(CC(=O)O)CC1)C(=O)N[C@@H](Cc1c[nH]c2ccccc12)C(=O)N[C@@H](CO)C(=O)O [copper-64 labelled]			human, muscle	concentration not given, 1 h		activity concentration	1110 Bq/mL and 1100 Bq/mL and 1320 Bq/mL and 1560 Bq/mL and 929 Bq/mL and 1290 Bq/mL
C=C1CC[C@H](OCCCNC(=O)CCOCCOCCOCCOCCOCCOCCOCCOCCOCCOCCOCCOCCOCCOCCOCCOCCOCCOCCOCCOCCOCCOCCOCCOCCOCCOCCOCCOCCOCCOCCOCCOCCOCCOCCOCCOCCNC(=O)CCN2C(=O)CC(SC[C@H](NC(=O)[C@H](Cc3ccccc3)NC(=O)[C@H](CC(N)=O)NC(=O)[C@H](Cc3c[nH]cn3)NC(=O)[C@@H](NC(=O)[C@H](CC(=O)O)NC(=O)[C@H](CCC(N)=O)NC(=O)[C@H](CC(C)C)NC(=O)[C@H](CCCCN)NC(=O)[C@H](CCCCN)NC(=O)[C@H](CCCNC(=N)N)NC(=O)[C@H](CC(C)C)NC(=O)[C@H](Cc3c[nH]c4ccccc34)NC(=O)[C@H](CCC(=O)O)NC(=O)[C@@H](NC(=O)[C@H](CCCNC(=N)N)NC(=O)[C@H](CCC(=O)O)NC(=O)[C@H](CCSC)NC(=O)[C@H](CO)NC(=O)[C@H](CC(N)=O)NC(=O)[C@H](CC(C)C)NC(=O)[C@H](Cc3c[nH]cn3)NC(=O)[C@H](CCCCN)NC(=O)CNC(=O)[C@H](CC(C)C)NC(=O)[C@H](CC(N)=O)NC(=O)[C@H](Cc3c[nH]cn3)NC(=O)[C@H](CCSC)NC(=O)[C@H](CC(C)C)NC(=O)[C@H](CCC(N)=O)NC(=O)[C@@H](NC(=O)[C@H](CCC(=O)O)NC(=O)[C@H](CO)NC(=O)[C@@H](NC(=O)[C@@H](N)CO)C(C)C)[C@@H](C)CC)C(C)C)C(C)C)C(=O)O)C2=O)C/C1=C/C=C1\CCC[C@]2(C)[C@@H]([C@H](C)CCCC(C)(C)O)CC[C@@H]12 (stereo partly shown)			rat, plasma	subcutaneous, 30 µg/kg, single dose		bioavailability	12.9%
N#C[C@@H]1CC(F)(F)CN1C(=O)CNC(=O)c1ccnc2ccc(OCCCN3CCN(C(=O)CN4CCN(CC(N)=O)CCN(CC(N)=O)CCN(CC(N)=O)CC4)CC3)cc12		iTLC	human serum	72 h, 37 °C, lead-203-labelled		intact complex	100%
CC(C)C[C@H](NC(=O)[C@@H](CCCCNC(=O)[C@@H](Cc1ccccc1)NC(=O)CCCCCNC(=O)CN1CCN(CC(=O)O)CCN(CC(=O)O)CCN(CC(=O)O)CC1)NC(=O)[C@H](Cc1ccc(O)cc1)NC(=O)[C@H](CO)NC(=O)[C@H](Cc1c[nH]c2ccccc12)NC(=O)[C@H](Cc1c[nH]cn1)NC(=O)[C@@H]1CCC(=O)N1)C(=O)N[C@@H](CCCNC(=N)N)C(=O)N1CCC[C@H]1C(=O)NCC(N)=O [indium-111 labelled]			female athymic nude mice, bone	intravenous, 0.037 MBq, 1 h		tissue uptake	0.07 ± 0.06 %ID/g
CCCC[C@H](NC(=O)CCCCCCCNC(=O)CN1CCN(CC(=O)O)CCN(CC(=O)O)CC1)C(=O)N[C@H]1CC(=O)NCCCC[C@@H](C(N)=O)NC(=O)[C@H](Cc2c[nH]c3ccccc23)NC(=O)[C@H](CCCNC(=N)N)NC(=O)[C@@H](Cc2ccccc2)NC(=O)[C@H](Cc2c[nH]cn2)NC1=O [technetium-99m labelled]			C57 mouse, spleen	intravenous, 0.037 MBq, 24 h		tissue uptake	0.07 ± 0.01 %ID/g
CN(Cc1ccccc1)C(=O)CN1CCN(CC(=O)[O-])CCN(Cc2cccc(C(=O)[O-])n2)CC1.[44Sc+3]			mouse, muscle	intravenous, 1 h		tracer uptake	0.2 %ID/g
